Results collected from several papers.
Every numbered part comes from another study and shows a few of its results, in no order.
UniProt Q9UQM7, sequence (whole entry, looked up): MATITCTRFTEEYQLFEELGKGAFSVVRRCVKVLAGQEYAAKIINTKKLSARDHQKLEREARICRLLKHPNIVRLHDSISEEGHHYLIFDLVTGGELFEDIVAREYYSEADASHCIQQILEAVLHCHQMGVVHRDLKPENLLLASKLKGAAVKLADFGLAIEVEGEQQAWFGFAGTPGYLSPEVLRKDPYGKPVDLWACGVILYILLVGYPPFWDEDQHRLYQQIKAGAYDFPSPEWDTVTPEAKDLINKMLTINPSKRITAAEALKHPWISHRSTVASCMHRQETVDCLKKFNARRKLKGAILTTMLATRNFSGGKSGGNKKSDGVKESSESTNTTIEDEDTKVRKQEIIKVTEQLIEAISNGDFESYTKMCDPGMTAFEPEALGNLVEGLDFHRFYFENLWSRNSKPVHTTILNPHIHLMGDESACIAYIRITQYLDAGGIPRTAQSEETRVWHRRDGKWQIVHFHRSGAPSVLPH
UniProt P05771, sequence (whole entry, looked up): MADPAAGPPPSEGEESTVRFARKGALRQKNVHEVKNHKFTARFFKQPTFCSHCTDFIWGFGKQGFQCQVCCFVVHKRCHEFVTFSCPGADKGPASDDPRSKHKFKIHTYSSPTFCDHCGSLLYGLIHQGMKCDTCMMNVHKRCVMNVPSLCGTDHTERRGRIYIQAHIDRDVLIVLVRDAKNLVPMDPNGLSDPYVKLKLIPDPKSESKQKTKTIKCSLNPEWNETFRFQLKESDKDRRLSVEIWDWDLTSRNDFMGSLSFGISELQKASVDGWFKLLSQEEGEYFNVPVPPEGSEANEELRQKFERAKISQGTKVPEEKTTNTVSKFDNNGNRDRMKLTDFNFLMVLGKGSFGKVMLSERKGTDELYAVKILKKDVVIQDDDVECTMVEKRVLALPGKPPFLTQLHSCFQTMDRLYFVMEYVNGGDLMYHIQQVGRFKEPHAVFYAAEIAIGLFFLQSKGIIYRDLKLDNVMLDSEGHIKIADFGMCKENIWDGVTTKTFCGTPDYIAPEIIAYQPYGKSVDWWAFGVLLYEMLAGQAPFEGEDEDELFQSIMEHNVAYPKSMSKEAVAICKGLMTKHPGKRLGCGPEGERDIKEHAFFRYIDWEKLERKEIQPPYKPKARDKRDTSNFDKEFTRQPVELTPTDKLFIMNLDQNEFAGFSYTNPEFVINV
UniProt P29322, sequence (whole entry, looked up): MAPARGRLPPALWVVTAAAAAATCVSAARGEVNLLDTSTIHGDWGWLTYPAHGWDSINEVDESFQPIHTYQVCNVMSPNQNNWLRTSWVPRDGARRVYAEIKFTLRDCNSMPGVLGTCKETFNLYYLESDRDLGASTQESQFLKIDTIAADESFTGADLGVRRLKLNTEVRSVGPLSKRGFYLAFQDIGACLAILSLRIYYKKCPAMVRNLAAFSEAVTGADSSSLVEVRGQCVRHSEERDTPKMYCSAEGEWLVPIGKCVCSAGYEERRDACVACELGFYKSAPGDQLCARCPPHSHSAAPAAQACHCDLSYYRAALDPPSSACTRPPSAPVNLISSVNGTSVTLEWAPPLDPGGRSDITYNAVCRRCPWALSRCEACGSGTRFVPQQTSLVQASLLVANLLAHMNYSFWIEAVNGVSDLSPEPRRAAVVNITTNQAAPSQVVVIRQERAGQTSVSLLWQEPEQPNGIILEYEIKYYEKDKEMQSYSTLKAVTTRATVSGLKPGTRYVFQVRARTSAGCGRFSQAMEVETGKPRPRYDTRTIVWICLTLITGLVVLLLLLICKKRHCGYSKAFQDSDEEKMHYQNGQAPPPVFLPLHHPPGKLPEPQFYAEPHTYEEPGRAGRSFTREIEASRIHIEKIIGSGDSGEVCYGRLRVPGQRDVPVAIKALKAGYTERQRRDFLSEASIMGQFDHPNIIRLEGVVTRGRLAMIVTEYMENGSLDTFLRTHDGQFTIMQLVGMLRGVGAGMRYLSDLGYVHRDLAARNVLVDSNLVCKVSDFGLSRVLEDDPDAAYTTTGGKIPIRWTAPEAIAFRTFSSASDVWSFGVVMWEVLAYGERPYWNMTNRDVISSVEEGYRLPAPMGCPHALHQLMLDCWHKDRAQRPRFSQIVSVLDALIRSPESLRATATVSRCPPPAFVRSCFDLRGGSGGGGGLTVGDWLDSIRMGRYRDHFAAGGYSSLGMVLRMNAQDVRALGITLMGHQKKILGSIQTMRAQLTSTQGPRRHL
UniProt Q9Y2H1, sequence (whole entry, looked up): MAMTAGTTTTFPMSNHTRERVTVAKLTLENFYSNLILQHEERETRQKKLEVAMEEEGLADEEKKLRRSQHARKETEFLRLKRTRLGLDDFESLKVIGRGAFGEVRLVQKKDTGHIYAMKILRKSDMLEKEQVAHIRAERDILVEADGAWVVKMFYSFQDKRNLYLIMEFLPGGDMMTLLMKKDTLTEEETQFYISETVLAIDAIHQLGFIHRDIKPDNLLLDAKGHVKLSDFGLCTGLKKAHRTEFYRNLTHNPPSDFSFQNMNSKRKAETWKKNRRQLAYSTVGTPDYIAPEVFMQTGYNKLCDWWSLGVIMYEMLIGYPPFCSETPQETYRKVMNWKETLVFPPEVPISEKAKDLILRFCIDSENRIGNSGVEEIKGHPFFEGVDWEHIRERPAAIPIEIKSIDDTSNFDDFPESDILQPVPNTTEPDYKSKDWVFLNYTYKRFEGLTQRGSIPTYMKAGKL
UniProt Q8IY84, sequence (whole entry, looked up): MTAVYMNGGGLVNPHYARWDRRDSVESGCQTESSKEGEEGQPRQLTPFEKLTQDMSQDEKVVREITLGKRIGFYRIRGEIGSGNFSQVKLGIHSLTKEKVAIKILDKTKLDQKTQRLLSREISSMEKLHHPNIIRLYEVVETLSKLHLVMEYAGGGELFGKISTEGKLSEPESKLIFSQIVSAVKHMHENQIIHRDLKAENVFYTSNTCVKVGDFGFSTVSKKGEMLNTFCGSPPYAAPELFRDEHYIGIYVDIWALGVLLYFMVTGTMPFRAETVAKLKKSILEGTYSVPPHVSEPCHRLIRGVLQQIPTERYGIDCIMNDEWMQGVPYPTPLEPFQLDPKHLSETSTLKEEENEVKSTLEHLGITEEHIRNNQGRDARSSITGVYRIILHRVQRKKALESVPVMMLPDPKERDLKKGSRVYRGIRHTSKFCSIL

Sample 1 — Structure (SMILES): O=C(Nc1ccccc1)Nc1cccc(Oc2ccc3nccn3n2)c1; tested at: 1 µM
| target | assay | remaining binding [%] |
| --- | --- | --- |
| Serine/threonine-protein kinase Nek6 (NEK6, Homo sapiens, UniProt Q9HC98) | binding | 100 |
| Serine/threonine-protein kinase LATS2 (LATS2, Homo sapiens, UniProt Q9NRM7) | binding | 70 |
| Cytoplasmic tyrosine-protein kinase BMX (BMX, Homo sapiens, UniProt P51813) | binding, competition with immobilised ligand | 100 |
| Calcium/calmodulin-dependent protein kinase type II subunit gamma (CAMK2G, Homo sapiens, UniProt Q13555) | binding | 97 |
| Wee1-like protein kinase (WEE1, Homo sapiens, UniProt P30291) | binding, competition with immobilised ligand | 100 |
| Serine/threonine-protein kinase Nek11 (NEK11, Homo sapiens, UniProt Q8NG66) | binding, competition with immobilised ligand | 100 |
| Ephrin type-A receptor 4 (EPHA4, Homo sapiens, UniProt P54764) | cell-free binding | 100 |
| Activin receptor type-2A (ACVR2A, Homo sapiens, UniProt P27037) | binding, competition with immobilised ligand | 100 |
| Serine/threonine-protein kinase 3 (STK3, Homo sapiens, UniProt Q13188) | binding | 100 |
| Serine/threonine-protein kinase NIM1 (NIM1K, Homo sapiens, UniProt Q8IY84) | binding | 81 |
| Calcium/calmodulin-dependent protein kinase type II subunit alpha (CAMK2A, Homo sapiens, UniProt Q9UQM7) | binding | 100 |
| Activin receptor type-1 (ACVR1, Homo sapiens, UniProt Q04771) | binding, competition with immobilised ligand | 100 |
| Serine/threonine-protein kinase 32B (STK32B, Homo sapiens, UniProt Q9NY57) | binding | 71 |
| Mitogen-activated protein kinase kinase kinase kinase 5 (MAP4K5, Homo sapiens, UniProt Q9Y4K4) | binding, competition with immobilised ligand | 100 |
| Dual specificity mitogen-activated protein kinase kinase 5 (MAP2K5, Homo sapiens, UniProt Q13163) | binding, competition with immobilised ligand | 63 |
| Phosphatidylinositol 4,5-bisphosphate 3-kinase catalytic subunit alpha isoform (PIK3CA, Homo sapiens, UniProt P42336, M1043I) | binding | 100 |
| Calcium/calmodulin-dependent protein kinase type 1G (CAMK1G, Homo sapiens, UniProt Q96NX5) | binding | 100 |
| Serine/threonine-protein kinase mTOR (MTOR, Homo sapiens, UniProt P42345) | binding | 79 |
| Ephrin type-A receptor 8 (EPHA8, Homo sapiens, UniProt P29322) | binding, competition with immobilised ligand | 100 |
| Serine/threonine-protein kinase 38 (STK38, Homo sapiens, UniProt Q15208) | binding | 96 |
| NT-3 growth factor receptor (NTRK3, Homo sapiens, UniProt Q16288) | binding, competition with immobilised ligand | 73 |
| Myotonin-protein kinase (DMPK, Homo sapiens, UniProt Q09013) | binding, competition with immobilised ligand | 96 |

Sample 2 — read-out: kinase activity
Structure (SMILES): CN(C1COC1)C(C)(C)/C=C(\C#N)C(=O)N1CCC[C@H]1Cn1nc(-c2ccc(Oc3ccccc3)cc2F)c2c(N)ncnc21
LYN isoform B: Tyrosine-protein kinase Lyn, isoform B (LYN, Homo sapiens, UniProt P07948)
UniProt P07948, sequence (whole entry, looked up): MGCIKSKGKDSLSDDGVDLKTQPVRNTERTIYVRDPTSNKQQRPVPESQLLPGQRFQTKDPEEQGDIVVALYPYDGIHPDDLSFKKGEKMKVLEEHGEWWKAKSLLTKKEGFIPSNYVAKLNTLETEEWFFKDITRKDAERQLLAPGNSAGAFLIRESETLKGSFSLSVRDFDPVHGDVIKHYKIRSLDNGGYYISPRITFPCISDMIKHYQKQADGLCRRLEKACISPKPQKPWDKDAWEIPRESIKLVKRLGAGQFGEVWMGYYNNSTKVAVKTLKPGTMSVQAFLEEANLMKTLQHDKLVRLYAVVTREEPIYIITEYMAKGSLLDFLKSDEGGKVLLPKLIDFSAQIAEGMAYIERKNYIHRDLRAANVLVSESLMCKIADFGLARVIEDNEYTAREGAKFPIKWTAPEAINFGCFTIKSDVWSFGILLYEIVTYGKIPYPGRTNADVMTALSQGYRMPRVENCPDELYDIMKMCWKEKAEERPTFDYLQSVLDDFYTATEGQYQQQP
| target | setting | inhibition [%] |
| --- | --- | --- |
| Interleukin-1 receptor-associated kinase 4 (IRAK4, Homo sapiens, UniProt Q9NWZ3) | 0.1 µM | -4 |
| MAP kinase-interacting serine/threonine-protein kinase 2 (MKNK2, Homo sapiens, UniProt Q9HBH9) | 1 µM | 9 |
| Tyrosine-protein kinase CSK (CSK, Homo sapiens, UniProt P41240) | 0.1 µM | 9 |
| Protein kinase C beta type, isoform beta-II (PRKCB, Homo sapiens, UniProt P05771) | 0.1 µM | 5 |
| Mitogen-activated protein kinase kinase kinase kinase 2 (MAP4K2, Homo sapiens, UniProt Q12851) | 0.1 µM | 0 |
| LYN isoform B | 0.1 µM | 2 |
| Protein kinase C beta type, isoform beta-I (PRKCB, Homo sapiens, UniProt P05771) | 1 µM | 0 |
| Serine/threonine-protein kinase 25 (STK25, Homo sapiens, UniProt O00506) | 1 µM | 11 |
| RAC-gamma serine/threonine-protein kinase (AKT3, Homo sapiens, UniProt Q9Y243) | 0.1 µM | 2 |
| Serine/threonine-protein kinase PLK3 (PLK3, Homo sapiens, UniProt Q9H4B4) | 0.1 µM | 1 |
| Protein kinase C epsilon type (PRKCE, Homo sapiens, UniProt Q02156) | 1 µM | -1 |
| Serine/threonine-protein kinase LATS2 (LATS2, Homo sapiens, UniProt Q9NRM7) | 1 µM | 1 |
| Serine/threonine-protein kinase N1 (PKN1, Homo sapiens, UniProt Q16512) | 1 µM | -3 |
| Serine/threonine-protein kinase 38-like (STK38L, Homo sapiens, UniProt Q9Y2H1) | 0.1 µM | 0 |
| STE20-like serine/threonine-protein kinase (SLK, Homo sapiens, UniProt Q9H2G2) | 1 µM | -1 |
| Receptor tyrosine-protein kinase erbB-2 (ERBB2, Homo sapiens, UniProt P04626) | 0.1 µM | -1 |
| Serine/threonine-protein kinase MARK2 (MARK2, Homo sapiens, UniProt Q7KZI7) | 0.1 µM | -1 |
| Cyclin-dependent kinase 2, with cyclin E (CDK2, Homo sapiens, UniProt P24941) | 1 µM | -10 |
| G protein-coupled receptor kinase 6 (GRK6, Homo sapiens, UniProt P43250) | 1 µM | -2 |
| Proto-oncogene tyrosine-protein kinase ROS (ROS1, Homo sapiens, UniProt P08922) | 0.1 µM | 1 |
| LYN isoform B | 1 µM | 23 |

Sample 3 — read-out: thermal unfolding; technique: differential scanning fluorimetry; tested at: 5.5 µM; reading: higher = more unfolded
Structure (SMILES): C[C@@H]1CN(c2ccc(-c3cc(C(=O)NCCOCCOCCOCCOCCNC(=O)/C=C/c4[nH]cc(C(=O)N[C@@H](CC(N)=O)c5ccc(F)c(Cl)c5)c4-c4ccc(Cl)cc4F)ccc3F)cc2NC(=O)c2c[nH]c(=O)cc2C(F)(F)F)C[C@H](C)N1C
DCAF1: DDB1- and CUL4-associated factor 1 (DCAF1, Homo sapiens, UniProt Q9Y4B6)
UniProt Q9Y4B6, sequence (whole entry, looked up): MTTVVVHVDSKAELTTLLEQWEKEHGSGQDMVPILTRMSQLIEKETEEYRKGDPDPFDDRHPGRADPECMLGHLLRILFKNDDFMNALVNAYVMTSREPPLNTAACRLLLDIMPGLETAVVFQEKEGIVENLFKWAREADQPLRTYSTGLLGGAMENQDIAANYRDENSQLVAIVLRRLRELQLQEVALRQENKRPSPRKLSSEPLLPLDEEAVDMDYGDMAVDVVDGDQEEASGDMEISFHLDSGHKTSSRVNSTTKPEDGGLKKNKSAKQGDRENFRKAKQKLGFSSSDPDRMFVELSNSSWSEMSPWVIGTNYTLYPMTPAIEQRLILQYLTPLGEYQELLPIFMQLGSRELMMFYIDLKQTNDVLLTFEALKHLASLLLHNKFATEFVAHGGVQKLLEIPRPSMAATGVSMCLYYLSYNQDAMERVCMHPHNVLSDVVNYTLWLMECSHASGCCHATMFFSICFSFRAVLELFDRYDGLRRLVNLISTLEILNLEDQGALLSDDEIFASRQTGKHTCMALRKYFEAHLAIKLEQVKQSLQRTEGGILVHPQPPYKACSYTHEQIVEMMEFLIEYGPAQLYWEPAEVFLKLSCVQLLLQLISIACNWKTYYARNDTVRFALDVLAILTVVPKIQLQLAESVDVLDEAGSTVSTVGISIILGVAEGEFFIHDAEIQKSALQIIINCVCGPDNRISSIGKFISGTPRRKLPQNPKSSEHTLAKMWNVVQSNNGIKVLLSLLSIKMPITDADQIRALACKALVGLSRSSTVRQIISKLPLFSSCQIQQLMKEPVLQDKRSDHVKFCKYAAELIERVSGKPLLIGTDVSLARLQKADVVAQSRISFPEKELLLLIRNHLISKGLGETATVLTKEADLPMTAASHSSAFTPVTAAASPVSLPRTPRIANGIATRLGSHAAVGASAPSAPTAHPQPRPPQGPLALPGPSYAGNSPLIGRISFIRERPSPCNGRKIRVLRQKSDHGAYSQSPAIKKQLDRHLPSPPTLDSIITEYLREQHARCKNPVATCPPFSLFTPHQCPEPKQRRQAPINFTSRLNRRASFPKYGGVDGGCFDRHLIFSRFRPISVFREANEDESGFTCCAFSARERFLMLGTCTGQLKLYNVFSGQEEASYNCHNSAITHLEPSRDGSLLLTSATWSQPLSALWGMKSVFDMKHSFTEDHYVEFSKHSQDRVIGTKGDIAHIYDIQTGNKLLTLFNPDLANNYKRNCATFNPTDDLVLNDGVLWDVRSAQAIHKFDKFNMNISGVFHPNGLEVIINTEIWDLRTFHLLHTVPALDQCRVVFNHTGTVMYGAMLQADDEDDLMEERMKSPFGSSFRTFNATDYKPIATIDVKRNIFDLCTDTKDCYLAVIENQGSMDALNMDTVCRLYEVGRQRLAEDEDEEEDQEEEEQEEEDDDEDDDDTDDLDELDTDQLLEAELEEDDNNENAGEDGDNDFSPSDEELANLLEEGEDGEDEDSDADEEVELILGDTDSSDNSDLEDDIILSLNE
WDR5: WD repeat-containing protein 5 (WDR5, Homo sapiens, UniProt P61964)
| target | setting | SYPRO Orange fluorescence [a.u.] |
| --- | --- | --- |
| DCAF1 | 77.21 °C | 47800 |
| WDR5 | 54.21 °C | 16800 |
| WDR5 | 28.6 °C | 12800 |
| WDR5 | 71.21 °C | 18000 |
| DCAF1 | 53.21 °C | 18200 |
| DCAF1 | 53.01 °C | 18000 |
| WDR5 | 78.21 °C | 35000 |
| DCAF1 | 43.4 °C | 12500 |
| DCAF1 | 25.4 °C | 9000 |
| WDR5 | 58.01 °C | 16300 |
| DCAF1 | 42 °C | 12200 |

Sample 4 — read-out: binding; technique: competition with immobilised ligand; tested at: 1 µM
SMILES: COc1cc(-c2nc3ccc(C(=O)NCCCN(C)C)cc3n2C2CCC2)cc(OC)c1OC
| target | remaining binding |
| --- | --- |
| Dual specificity protein kinase CLK3 (CLK3, Homo sapiens, UniProt P49761) | 100% |
| Tyrosine-protein kinase ABL1, phosphorylated (ABL1, Homo sapiens, UniProt P00519, M351T) | 50% |
| Serine/threonine-protein kinase DCLK1 (DCLK1, Homo sapiens, UniProt O15075) | 93% |
| Epidermal growth factor receptor (EGFR, Homo sapiens, UniProt P00533, L861Q) | 96% |
| Serine/threonine-protein kinase pim-2 (PIM2, Homo sapiens, UniProt Q9P1W9) | 91% |
| Mast/stem cell growth factor receptor Kit (KIT, Homo sapiens, UniProt P10721, V559D/V654A) | 91% |
| Receptor-type tyrosine-protein kinase FLT3 (FLT3, Homo sapiens, UniProt P36888, N841I) | 100% |
| Serine/threonine-protein kinase VRK2 (VRK2, Homo sapiens, UniProt Q86Y07) | 89% |
| Casein kinase I isoform delta (CSNK1D, Homo sapiens, UniProt P48730) | 86% |
| Ephrin type-A receptor 8 (EPHA8, Homo sapiens, UniProt P29322) | 92% |
| Tyrosine-protein kinase JAK3, JH1 (JAK3, Homo sapiens, UniProt P52333) | 58% |
| Wee1-like protein kinase 2 (WEE2, Homo sapiens, UniProt P0C1S8) | 52% |
| Uncharacterized serine/threonine-protein kinase SBK3 (SBK3, Homo sapiens, UniProt P0C264) | 100% |
| Calcium/calmodulin-dependent protein kinase type IV (CAMK4, Homo sapiens, UniProt Q16566) | 100% |
| Cyclin-dependent kinase 4 (CDK4, Homo sapiens, UniProt P11802) | 100% |
| Bone morphogenetic protein receptor type-1A (BMPR1A, Homo sapiens, UniProt P36894) | 32% |
| Mitogen-activated protein kinase kinase kinase 20 (MAP3K20, Homo sapiens, UniProt Q9NYL2) | 96% |
| Cyclin-dependent kinase-like 3 (CDKL3, Homo sapiens, UniProt Q8IVW4) | 97% |
| Calcium/calmodulin-dependent protein kinase type II subunit alpha (CAMK2A, Homo sapiens, UniProt Q9UQM7) | 88% |
| Serine/threonine-protein kinase WNK2 (WNK2, Homo sapiens, UniProt Q9Y3S1) | 92% |
| Serine/threonine-protein kinase/endoribonuclease IRE1 (ERN1, Homo sapiens, UniProt O75460) | 63% |
| cGMP-dependent protein kinase 1 (PRKG1, Homo sapiens, UniProt Q13976) | 98% |
| cAMP-dependent protein kinase catalytic subunit alpha (PRKACA, Homo sapiens, UniProt P17612) | 94% |
| Mitogen-activated protein kinase 10 (MAPK10, Homo sapiens, UniProt P53779) | 70% |
| Serine/threonine-protein kinase 38-like (STK38L, Homo sapiens, UniProt Q9Y2H1) | 96% |

A few entries again (sample 1):
| target | assay | remaining binding [%] |
| --- | --- | --- |
| Serine/threonine-protein kinase 3 (STK3, Homo sapiens, UniProt Q13188) | binding | 100 |
| Serine/threonine-protein kinase 32B (STK32B, Homo sapiens, UniProt Q9NY57) | binding | 71 |
| Activin receptor type-1 (ACVR1, Homo sapiens, UniProt Q04771) | binding, competition with immobilised ligand | 100 |
| Myotonin-protein kinase (DMPK, Homo sapiens, UniProt Q09013) | binding, competition with immobilised ligand | 96 |
| Phosphatidylinositol 4,5-bisphosphate 3-kinase catalytic subunit alpha isoform (PIK3CA, Homo sapiens, UniProt P42336, M1043I) | binding | 100 |
| Wee1-like protein kinase (WEE1, Homo sapiens, UniProt P30291) | binding, competition with immobilised ligand | 100 |
| NT-3 growth factor receptor (NTRK3, Homo sapiens, UniProt Q16288) | binding, competition with immobilised ligand | 73 |
